Results from different studies.
Protocols differ between the studies behind these lines. Numbers after ± are the reported error.

Compound	assay	system	conditions	how to read	measurement	result
C=C1C[C@H]2[C@@H]3CC[C@H](O[C@@H]4O[C@H](C(=O)O)[C@@H](O)[C@H](O)[C@H]4O)[C@@]3(C)CC[C@@H]2[C@@]2(C)C=CC(=O)C=C12	–	postmenopausal women, serum	UGT2B17 and GSTA1 genotypes	–	share of modified total exemestane metabolites	53%
O=C(O)c1cn(Cc2cccc(Cl)c2)c2ccccc12	–	F344 rat, male, serum	oral, 150 mg/kg/day, 2 days	relative to: vehicle	serum ALT, AST, ALP, GGT	no effect
Cc1ncc2n1-c1ccc(Cl)cc1C(c1ccccc1F)=NC2	–	human	oral, pH 7.7	–	oral bioavailability	47%
Cc1ncc2n1-c1ccc(Cl)cc1C(c1ccccc1F)=NC2	–	wild-type mice, plasma	intravenous, 0.3 mg/kg, together with: 3-day PB, BC 500 mg/kg and PCN 10 mg/kg	–	AUC(0-90 min)	0.0367 ± 0.0043 µM·h
COc1cc2c(Oc3ccc4[nH]c(C)cc4c3F)ccnc2cc1OCC1(N)CC1	–	paediatric recurrent refractory sarcoma	10 mg	–	grade 3 influenza-like symptoms	0%
CN1CC[C@]23c4c5ccc(O)c4O[C@H]2[C@@H](O)C=C[C@@]3(O)[C@H]1C5	–	–	1 h	–	logP	0.78
O=C(O)CNC(=O)C1C(=O)N(C2CCCCC2)C(=O)N(C2CCCCC2)C1=O	–	–	–	–	pKa (acidic)	3.3
Cc1ccc(C(=O)N[C@H]2CC[C@@]3(O)[C@H]4Cc5ccc(O)c6c5[C@@]3(CCN4CC3CC3)[C@H]2O6)s1.Cl	antagonist	morphine-pelleted Swiss Webster mice	subcutaneous, 20 mg/kg	relative to: naloxone 1 mg/kg	withdrawal jumps	increased
Cc1ncc2n1-c1ccc(Cl)cc1C(c1ccccc1F)=NC2	–	human liver microsomes 0.5 mg/mL	5 µM, 24 h	–	fu,mic	0.735
Cc1onc(-c2c(F)cccc2Cl)c1C(=O)N[C@@H]1C(=O)N2[C@@H]1SC(C)(C)[C@@H]2C(=O)O	–	human whole blood	concentration not given, 8 h, 4 °C	–	deviation from nominal concentration	-1.5%
C#Cc1ccc2c(c1)C(c1ccccn1)=NCc1c(-c3cnco3)ncn1-2.Cl	shake flask	50 mM phosphate buffer	24 h, pH 9, 25 °C	–	solubility	959 µg/mL
O=C(O)c1cn(Cc2ccc(F)cc2)c2ccccc12	glucuronidation	human intestinal microsomes	60 min, 37 °C, together with: UDPGA	–	Km	117 ± 35 µM
Cc1ncc(OC[C@@]2(c3cccc(F)c3)C[C@H]2C(=O)Nc2ccc(F)cn2)c(C)n1	estimated from MDCK Papp	MDCK knock-out, human	1 µM, 90 min	–	fraction absorbed	100%
COc1ccc2c(c1)[C@]13CCCC[C@@H]1[C@H](C2)N(C)CC3	–	human, female	30 mg, day 22, together with: hop dietary supplement	relative to: day 0	half-life decrease	3.15 h
C=C1C[C@@H]2[C@H](CC[C@]3(C)C(=O)CC[C@@H]23)[C@@]2(C)C=CC(=O)C=C12	glutathione conjugate formation, substrate	pooled human liver cytosol	1 h, 37 °C, together with: GSH 5 mM	–	Km	46 ± 12 µM
O=C1c2c(O)c(=O)ccn2N([C@@H]2c3ccccc3SCc3c2ccc(F)c3F)[C@@H]2COCCN12	–	BALB/c mice, plasma	oral, 0.5 mg/kg baloxavir marboxil, 0.5 h	–	plasma concentration	4.84 ng/mL
Cc1onc(-c2c(F)cccc2Cl)c1C(=O)N[C@@H]1C(=O)N2[C@@H]1SC(C)(C)[C@@H]2C(=O)O	LC-MS/MS	human patients, plasma	dose not given, therapeutic drug monitoring, median	–	total plasma concentration	12 mg/L
Cc1ncc2n1-c1ccc(Cl)cc1C(c1ccccc1F)=NC2	–	human, plasma	oral, single dose, together with: dose, single, rimegepant 300 mg	relative to: with over without rimegepant	AUC(0-inf) ratio	186%
OCc1ncc2n1-c1ccc(Cl)cc1C(c1ccccc1F)=NC2	–	human, plasma	oral, 7.5 mg of midazolam, day 26, arithmetic mean, no amenamevir	–	AUC(0-inf)	44.1 ng·h/mL
CCCCCCCCCCC(=O)O[C@H]1CC[C@H]2[C@@H]3CCC4=CC(=O)CC[C@]4(C)[C@H]3CC[C@]12C	–	human male serum	500 ng/mL, NaF 200 mg/mL, baseline testosterone 441 ng/dL	–	testosterone level	447 ng/dL
CCN(CC)C(=O)[C@@H]1C=C2c3cccc4[nH]cc(c34)C[C@H]2N(C)C1	refers to: not feeling at ease	healthy volunteers	dose not given, 0 to 12 h	relative to: placebo, direction not given	List of Complaints score	1
